# Assay results of several laboratories.
# Protocols differ between the studies behind these lines.
Substance,technique,measured,matrix,temperature,setting,pKa
ksi D40N/D103L (Pseudomonas putida),UV-vis,Tyr57,,25 °C,,8.2
"WT1 zinc finger 4 (Homo sapiens, UniProt P19544)",NMR,Cys10,,288 K,"KCl 10 mM, apo, unfolded, reduced, numbering of the source",7.9
"N-acetyl-L-histidine methylamide, N-acetyl, C-terminal N-methylamide",NMR,His1,,25 °C,Na2SO4 20 mM,6.52
ksi D40N/F56A (Pseudomonas putida),UV-vis,Tyr57,,25 °C,,6.9
"PRL (Homo sapiens, UniProt P01236)",NMR,His27,,35 °C,"25 mM NaCl, microscopic; neighbours unprotonated, numbering of the source",6.64
"proteorhodopsin, retinal (uncultured gamma-proteobacterium EBAC31A08, UniProt Q9F7P4)",UV-vis,Asp97,E. coli membranes,,"NaCl 100 mM, not purified, oligomeric",6.7
ksi D40I/D103N (Pseudomonas putida),UV-vis,Tyr57,,25 °C,,8.5
"ORF56 (Sulfolobus islandicus, UniProt Q54323)",NMR,Glu31,,,"free native homodimer, low salt",4.59
ksi D40N/M116A (Pseudomonas putida),UV-vis,Tyr57,,25 °C,,5.9
CRYGD P23T (Homo sapiens),NMR,His15,,25 °C,numbering of the source,6.51
CISD1 K55E (Homo sapiens),redox potentiometric titration,His87,,,"oxidised cluster, His87",9.2
nuc G50F/V51N/P117G/H124L/S128A/del44-49/L38E/E122Q (Staphylococcus aureus),NMR,His8,,298 K,"KCl 100 mM, numbering of the source",6.4
ksi D40L/D103N (Pseudomonas putida),UV-vis,Tyr57,,25 °C,,> 10
"iscU apo (Escherichia coli, UniProt P0ACD4)",NMR titration,His10,,25 °C,"NaCl 150 mM, D-state, averaged, apo",7
nuc G50F/V51N/P117G/H124L/S128A/del44-49 (Staphylococcus aureus),NMR,His8,,298 K,"KCl 100 mM, numbering of the source",6.6
"CRYGD (Homo sapiens, UniProt P07320)",NMR,His65,,25 °C,numbering of the source,6.02
ksi Y32F/D40R/F56A/D103A (Pseudomonas putida),UV-vis,Tyr57,,25 °C,,> 10
nuc G50F/V51N/P117G/H124L/S128A/del44-49/L38E (Staphylococcus aureus),NMR,His8,,298 K,"KCl 100 mM, numbering of the source",6.5
"FIS1 cytosolic domain, lacks C-terminal 29 (Saccharomyces cerevisiae, UniProt P40515)",NMR,His106,,25 °C,NaCl 50 mM,6.04
ksi D40S/D103N (Pseudomonas putida),UV-vis,Tyr57,,25 °C,,8.2
"PCSK1 propeptide domain (Homo sapiens, UniProt P29120)",mass spectrometry,His67,,,"apparent, histidine H/D exchange, pepsin digest",6.31

# Excerpt of the above:
Substance,technique,measured,matrix,temperature,setting,pKa
ksi D40L/D103N (Pseudomonas putida),UV-vis,Tyr57,,25 °C,,> 10
ksi D40S/D103N (Pseudomonas putida),UV-vis,Tyr57,,25 °C,,8.2
"WT1 zinc finger 4 (Homo sapiens, UniProt P19544)",NMR,Cys10,,288 K,"KCl 10 mM, apo, unfolded, reduced, numbering of the source",7.9
